Published values pooled from the literature.
Every numbered part comes from another study and shows a few of its results, in no order.
Sequence of UniProt Q99759 (whole entry, looked up): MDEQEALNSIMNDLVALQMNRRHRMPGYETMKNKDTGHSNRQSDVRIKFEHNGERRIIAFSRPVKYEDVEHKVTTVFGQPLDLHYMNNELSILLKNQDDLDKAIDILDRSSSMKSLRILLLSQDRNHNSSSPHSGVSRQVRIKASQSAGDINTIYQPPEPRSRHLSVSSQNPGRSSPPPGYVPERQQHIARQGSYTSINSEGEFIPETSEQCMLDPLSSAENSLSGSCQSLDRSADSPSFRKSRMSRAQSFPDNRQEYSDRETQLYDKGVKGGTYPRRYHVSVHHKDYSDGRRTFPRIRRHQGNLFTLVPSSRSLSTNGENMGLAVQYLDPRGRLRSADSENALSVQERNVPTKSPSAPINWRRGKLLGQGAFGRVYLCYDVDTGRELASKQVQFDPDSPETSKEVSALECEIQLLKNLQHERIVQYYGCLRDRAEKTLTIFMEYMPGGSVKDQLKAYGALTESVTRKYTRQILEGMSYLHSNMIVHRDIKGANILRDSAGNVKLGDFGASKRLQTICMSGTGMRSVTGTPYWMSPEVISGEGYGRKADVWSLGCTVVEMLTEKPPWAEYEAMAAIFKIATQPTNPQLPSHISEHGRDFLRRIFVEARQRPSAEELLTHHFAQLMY
Sequence of UniProt Q9NUL3 (1-200, looked up): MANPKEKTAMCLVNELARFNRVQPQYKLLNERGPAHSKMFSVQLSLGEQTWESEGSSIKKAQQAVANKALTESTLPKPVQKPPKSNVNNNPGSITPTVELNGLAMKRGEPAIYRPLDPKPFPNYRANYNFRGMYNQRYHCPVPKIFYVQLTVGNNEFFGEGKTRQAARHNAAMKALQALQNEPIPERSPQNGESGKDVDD

Study 1
Target: PABPC1L2, full length, GST fusion (mouse, UniProt A0ABA7IW68)
Technique: RNAcompete
Molecule type: RNA
Medium: in vitro
Tested at: 20 nM
Notes: 7-mer, probes averaged, single round
Reference: mean of 7-mers
Reading: higher = stronger binding
Target sequence (chain): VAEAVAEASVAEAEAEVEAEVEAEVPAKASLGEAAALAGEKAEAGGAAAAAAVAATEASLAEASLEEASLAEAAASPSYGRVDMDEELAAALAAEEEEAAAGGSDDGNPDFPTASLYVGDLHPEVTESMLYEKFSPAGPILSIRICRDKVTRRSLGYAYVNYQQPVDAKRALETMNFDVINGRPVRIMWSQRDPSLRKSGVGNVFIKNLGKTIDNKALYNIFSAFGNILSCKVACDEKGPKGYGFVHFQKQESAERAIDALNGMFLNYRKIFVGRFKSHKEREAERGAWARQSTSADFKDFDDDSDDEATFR
Oligonucleotide	7-mer Z-score
GUUGCAC	-0.121
GAAUUGA	0.00617
CAUAACC	-0.282
UCUUCUA	-0.329
CUAACUC	-0.257
AUCGCGU	-0.293
ACUGCUA	-0.237
GCCGUCG	-0.503

Study 2
Target: Interferon regulatory factor 7, full length, phosphomimetic (IRF7, Homo sapiens, UniProt Q92985, residues 1-503, S101K/S471D/S472D/S475D/S476D/S477D/S483D/S484D/S487D)
Sequence of UniProt Q92985 (whole entry, unmodified, looked up): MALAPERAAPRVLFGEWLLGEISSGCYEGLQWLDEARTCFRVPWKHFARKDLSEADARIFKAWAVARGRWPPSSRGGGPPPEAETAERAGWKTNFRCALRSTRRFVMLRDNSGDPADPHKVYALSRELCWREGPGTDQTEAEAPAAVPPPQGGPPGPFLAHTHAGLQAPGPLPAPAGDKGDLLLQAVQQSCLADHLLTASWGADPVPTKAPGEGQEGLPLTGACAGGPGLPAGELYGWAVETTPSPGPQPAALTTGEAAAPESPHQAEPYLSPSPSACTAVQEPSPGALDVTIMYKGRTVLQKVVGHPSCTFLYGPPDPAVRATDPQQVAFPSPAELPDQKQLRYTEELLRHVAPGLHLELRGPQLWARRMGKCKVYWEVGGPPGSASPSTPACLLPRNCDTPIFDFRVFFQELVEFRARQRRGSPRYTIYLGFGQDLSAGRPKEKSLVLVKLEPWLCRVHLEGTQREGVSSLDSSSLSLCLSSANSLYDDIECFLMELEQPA
Technique: protein-binding microarray
Molecule type: double-stranded DNA, one strand shown
Medium: in vitro
Tested at: 250 nM
Notes: 60-bp whole probe
Added: salmon DNA 0.4 mg/ml
Reference: random background probes
Reading: higher = stronger binding
All sequences stand within: GCCTAGCAC … GTCTTGATTCGCTTGACGCTGCTG
Oligonucleotide	log fluorescence
TCAACTCCCTCTCTGGCACTGTGCTAG	-0.44 z-score
GACGGTTTCCTTCTCCTTACGTGCTAG	2.53 z-score
TCAAGTTTCCCTCCCTGACTGTGCTAG	1.36 z-score
TTAGGTTTCGGGACTGGGTCAGTGCTA	3.72 z-score
TTAGGTATCGGGACTGGGTTAGTGCTA	-0.138 z-score
GGGGTTAGGGTCATTCATTCGTGCTAG	-0.506 z-score
TTAGGTATCGGTATCGGTGAGTGCTAG	1.44 z-score
GACGATATCAATCTCGAGACGTGCTAG	0.263 z-score

Mixed results
Substance	target	assay	system	setting	scale	quantity	result
COc1cc2nccc(Oc3ccc(NC(=S)NC(=O)c4ccccc4C)cc3)c2cc1OC	Mitogen-activated protein kinase kinase kinase 3 (MAP3K3, Homo sapiens, UniProt Q99759)	enzyme activity, inhibitor		0.5 µM	reference: control	remaining activity	105%
AAAAAAAA (biotin)	Double-stranded RNA-binding protein Staufen homolog 2, dsRBDs 1-2 (STAU2, Homo sapiens, UniProt Q9NUL3, residues 1-200)	protein domain microarray	RNA, in vitro	not given, poly(A) 8-mer RNA, whole probe, immobilized GST-fusion domains, most near background	reference: GST loading signal, higher = stronger binding	signal ratio	0.744
PhoQ, residues 284 288 289 292 302 303 AMDMFI	PhoP, residues 12 14 15 18 19 HLGGL (Escherichia coli, UniProt P23836)	Sort-seq, refers to: YFP reporter	E. coli	PhoQ-PhoP variant library, added: 10 µM Mg2+	reference: high Mg2+ state, higher = stronger signaling	fold induction	2.22

Repeated from above (study 2):
Oligonucleotide	log fluorescence
TTAGGTATCGGGACTGGGTTAGTGCTA	-0.138 z-score
TTAGGTTTCGGGACTGGGTCAGTGCTA	3.72 z-score
GACGATATCAATCTCGAGACGTGCTAG	0.263 z-score
